Published values collected from several papers.
Parts stem from different laboratories: compare values within a part only.

Sample 1 — method: RNA Bind-n-Seq; form: RNA; medium: in vitro; concentration: 365 nM; baseline: no-protein control; direction: higher = stronger binding
Target: RNA binding protein fox-1 homolog 2, RRM domain, GST-SBP tag (RBFOX2, Homo sapiens, UniProt O43251-10, residues 100-194)
Notes: natural RNA segment, single round, ends assumed
Constant ends, left off below: GGGAGUUCUACAGUCCGACGAUC … UGGAAUUCUCGGGUGCCAA
Construct (chain): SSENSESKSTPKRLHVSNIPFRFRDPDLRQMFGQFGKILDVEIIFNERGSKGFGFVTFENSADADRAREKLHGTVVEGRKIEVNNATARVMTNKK
Strand	RBNS enrichment (R)
AGAACCUGACAUCAGAGGAGAGUGUGAUUUACCUGGGCUCAUAUAAUUAGAAGCAUCUCCAGGCCUGGAGAAAAUUUGAACUUAUGGUCCCGGGCUGCUUUGUAGUGAGC	0.393
AGCGCCUCCUUCAGGGUUGGCUGGGAGCUCGGCCCAUCCACCUCUUGGGGUACCUGCCUCUCUCUCUCCUGUGGUGUCCCUUCCCUCUCCCAUGUGCUCGGUGUUCAGUG	0.543
AGAGAAAUGUCUGUCCAUUUUUAUUCAGGGGAAACUUGAUUUGAGAUUUUUAUGCCUGUGACUUCCUUGGAAAUCAAAUGUAAAGUUUAAUUGAAAGAAUGUAAAGCAAC	5.26
ACUUUCUGUCAAGAUAUUUACCCGUGUCAAAUUCAAACUACAGUACUGUGUAAUUAUGUAUAAAGUUUUUUUAUUUAUUUGAAGUUAGACUAGAUAUACGUUUUUAAAUU	0.891
AGUGCCCCUGCCCUAGGGGUGUCUGUCUCCAGAGGGGAGGGACAAAUCCCCUACUGGGGCCAUUUCAAUGGGGUAGUUUUUGGAUUUUUUUCCCCACUCACUUUUUAUUU	0.586
AAGGAAUCAAAUUUAUUGAAUUUUAUUAUUGAAAGUUGAAAUAAGAUGUAUGAACAAAAAAAAAUCAAUAAAAGAAUAUACUCUUUUCAUGGACUGUAGUAGUAUGUGAA	6.52
GCAGCAUAUUGGCUUGGGGGCAAGCACUAGAACCGACACAAAAGGGUUGAUGAGGGCCCUGGCACCACUGUCACCACCCACCCCUUCCUACCAGCUGCUGCUAGCCCUCU	0.929
AUAUGGAAAAGGAAAAAAAUAUCUCACAAGUUCUUUGGGAACUUGUUUCAAGCCAAAAACUCUCAAGACAGAAAAUUGCACCUCAGCUGGGUUGAUUUCAAAAUGCCAGC	0.899
UGAGAAAACAGGGGCGUUUCCUAAUUUGGUCUUUAUCCUGCGACAACACUUUCAGCAGACUAGCCUCUCCUUAUCUCACAGAUCACAAGCACCCCUAGAUAGUGUGAUUC	0.326
UAUUGGAUGUGAUGUUUCUUGCAUUCAUGUAAAUUGGAUGCAAUGUUUUCAAAUAAAUGUAGAUCUUGAGCAUGAUGUGUUCUGUAUAAUUUUAAUAGAUAAUAAUCAUA	2.22
UUCUGCUGAAAGGUGAUUAUAUUUGACAGGUGCUUAGACAUUUGGCUAAGAUAUUUUCCAAUCAGUCCCCUUUGUAUUAGUGGGGCAUUUGUGGUUAGUUUGAAAAACAG	0.327
GAUAGUUACUGUGGAGCAGCCAGUUCAUGGGGUCCCCCUUGGGGCCCCACACCCCGUCUCUCACCAAGAGUUACUGAUUUUGCUCAUCCACUUCCCUACACAUCUAUGGG	0.293

Sample 2 — method: RNA Bind-n-Seq; form: RNA; medium: in vitro; concentration: not given; baseline: input RNA pool; direction: higher = stronger binding
Target: RING finger protein unkempt homolog, zinc fingers 1-6, GST-SBP tag (UNK, Homo sapiens, UniProt Q9C0B0, residues 30-357)
Notes: RNA with constant flanks, human-mouse chimeric sites, ends assumed
Constant ends, left off below: GGGAGUUCUACAGUCCGACGAUC … CAACAGAGGAUUGAGCAUCA
Residues (chain): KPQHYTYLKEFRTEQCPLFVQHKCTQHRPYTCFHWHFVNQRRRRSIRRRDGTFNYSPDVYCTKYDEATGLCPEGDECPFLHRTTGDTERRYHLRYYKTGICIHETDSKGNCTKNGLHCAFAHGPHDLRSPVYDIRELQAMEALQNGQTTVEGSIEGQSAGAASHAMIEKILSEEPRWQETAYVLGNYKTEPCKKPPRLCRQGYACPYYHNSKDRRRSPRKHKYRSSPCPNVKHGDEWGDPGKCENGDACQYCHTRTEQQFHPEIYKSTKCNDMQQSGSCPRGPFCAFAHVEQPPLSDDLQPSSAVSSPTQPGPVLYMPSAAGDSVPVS
Strand	bound/input enrichment [ratio]
UGACAAGGGCACUGCAGAGCCAUGCCUUUCCUUGACAUACAGAAAAAGCUGGGCAUCAGCCUGGACCGGCACUUUAUGUUCCUAAGCGGUGAACAGCCCUAUAAGAACGCCGCUCGGUGC	0.0876
GCUCCUCUUCCGCACUCAGCCUGGGGACACUGGGCUGGGACCAGAAUCCAGCUUUCUUUUAAUAGUGUCAGUGUAACUGUAUCCCGUGACAUUUCAUUUUUUUUAAAUAGUGUAUUUUUU	6.73
GCCACCAGAUCCCAGAAACAUGACCCUUGCUGCCUACAAAGAGAAGAUGAAGGAACUCCCGCUGGUGUCCUUGUUCUGCUCCUGCUUCCUGGCCGAUCCCCUGAAUAAGUCGUCCUACAA	0.37
GCGGCAGAAUCAUGGAGGACAUAAUGCAGCUCCCCAAAGCGCGCGUCAACGCCAGCAUGUUACCACAGUAUAUCGACAAGCCUGUCUGCUUCGUAGGGAAGCUGGAAAAGAUUCAUCCCA	0.16
GAUCCACAGUGGUCUGAGGAACAGCUGAUUGCUGCAAAAUUCUGUUUUGCUGGCCUUGUUAUAGGGCAGACUGAAGUGGACAUCAUGAGUCAUGCCACACAAGCUAUAUUUGAAAUACUG	0.275
CUGGCACUGUAUCAGAUAUAUUAAUUUUUUAAUGUAGAUGUAAUUUUAAAAAUGAAUGGCUACUUUACACGUUUAACUAGGGUUUUACUAUAUAUGUGUGUGUAUAUAUAUAUAUAUAUA	21.3
GCGGCAGAAUCAUGGAGGACAUAAUGCAGCUCCCCAAAGCGCGCGUCAACGCCAGCAUGCUAGCUCAGUAUAUCGACCGGCCCGUGUGCUUCGUAGGGAAGCUGGAAAAGAUUCAUCCCA	0.119
GUGCCCUUCUCGCUGCUGCGGAGCCCGCCCAGCUGGGCAUUCCGGGACUGGUACCCUGCACACAGCCGCCUCUUCGAUCAAGCUUUCGGGCUGCCCCGGUUGCCCGAUGAGUGGUCGCAG	0.0596
UCAGGAACCCAGACAAACAUGAAUGUAAAUGAAGUCAUUAGCAACAGAGCAAUUGAAAUGUUAGGAGGUGAACUUGGCAGCAAGAUACCUGUGCACCCCAACGAUCAUGUUAACAAAAGC	0.281
UGACAAGGGCACUGCAGAGCCAUGCCUUUCCUUGACAUACAGAAAAAGCUGGGCAUCAGCCUGGACCGGCACUUUAUAAUCCAGAGUGGUGAACAGCCCUAUAAGAACGCCGCUCGGUGC	0.105
UUGAAAACUGAUUCAAGCAAGUUUGAAUAUCACAAUGUUAGCUUUCUAAUUCCAUAAAAGUACUUGGUUUUUACAGUUUAUAAUCUGACAUCACCCCAGCGCCAUUUGUAAAGAGCAACU	0.686

Sample 3 — method: RNA Bind-n-Seq; form: RNA; medium: in vitro; concentration: 200 nM; notes: whole 134-nt RNA, ends assumed; with: 150 mM KCl; baseline: input library; direction: higher = stronger binding
Target: Fragile X messenger ribonucleoprotein 1, C-terminal low-complexity region (Fmr1, Mus musculus, UniProt P35922)
Constant ends, left off below: GGGAGUUCUACAGUCCGACGAUC … UGGAAUUCUCGGGUGUCAAGG
Strand	log2 enrichment
CUCAAGUCCUGUGCUACACAUCGUAUGUACCGAAUCGGGCGGGGCGGGCGGGGAAAGUAUUAUGUUACGCCGUUCGGAUCUGCACUUCCA	1.02
UAACUUUAGGGGAGGAUCUGAUGGAUAUGGCAGUGGACGUGGAUUUGGGGAUGGCUAUAAUGGGUAUGGAGGAGGACCUGGAGGUGGCAA	0.349
UCAAGUCCUGUGCUACACAUCGUAUGUACCGAAUCGGAAAGGGAAAGGGGAAAGGAAAGUAUUAUGUUACGCCGUUCGGAUCUGCACUUC	-0.532
UCAAGUCCUGUGCUACACAUCGUAUGUACCGAAUCGGAAAGGAAAAAGGAAAGGAAAGUAUUAUGUUACGCCGUUCGGAUCUGCACUUCC	-0.768
CACAGACAACACGCACCCACCCAGACACAGAGGGAAGGGGUUGGGAUGGGGACAGGGUGCACAGCAGGGCGGGGUAGGACCCCAGCCCCU	1.32
AAGUCCUGUGCUACACAUCGUAUGUACCGAAUCAAACCCAAAUUUAAACCCCCAAAAAAGUAUUAUGUUACGCCGUUCGGAUCUGCACUU	-0.394
GUCCUGUGCUACACAUCGUAUGUACCGAAUCGGGCCCCCGGGGCCCCCGGCCCCCGGGAAAGUAUUAUGUUACGCCGUUCGGAUCUGCAC	-0.665
CCUGUGCUACACAUCGUAUGUACCGAAUCGGAAAAAAAGGGAAAAAAAGGGGAAAAAAAGGAAAGUAUUAUGUUACGCCGUUCGGAUCUG	-0.959
CCUGUGCUACACAUCGUAUGUACCGAAUCGGCCCCCCCGGCCCCCCCGGGCCCCCCCGGGGAAAGUAUUAUGUUACGCCGUUCGGAUCUG	-0.519
CAAGUCCUGUGCUACACAUCGUAUGUACCGAAUCGGCCCGGGCCCGGGGCCCGGGAAAGUAUUAUGUUACGCCGUUCGGAUCUGCACUUC	-0.68
UCAAGUCCUGUGCUACACAUCGUAUGUACCGAAUCGGAAAGGAAAGGAAAAAGGAAAGUAUUAUGUUACGCCGUUCGGAUCUGCACUUCC	-0.583
GUCCUGUGCUACACAUCGUAUGUACCGAAUCGGGGAAAAGGGGAAAAGGGAAAAGGGGAAAGUAUUAUGUUACGCCGUUCGGAUCUGCAC	0.293
UGGGAGGUGGAUUUUGUUUAUUUUUUUAGCUCAUUUCCAGGGGUGGGAAUUUUUUUUUAAUAUGUGUCAUGAAUAAAGUAGUUUUUGAAA	0.307
AGUCCUGUGCUACACAUCGUAUGUACCGAAUCGGGUUUUUGGGUUUUUGGGUUUUUGGAAAGUAUUAUGUUACGCCGUUCGGAUCUGCAC	-0.206

Sample 4 — method: protein binding microarray; form: double-stranded DNA, one strand shown; medium: in vitro; concentration: not given; baseline: not given; direction: higher = stronger binding
Target: Histone acetyltransferase KAT6A, winged helix 2, GST fusion (KAT6A, Homo sapiens, UniProt Q92794, residues 85-181)
Notes: 8-mer, flanks averaged, mean of 2 arrays, mostly near background
Residues (chain): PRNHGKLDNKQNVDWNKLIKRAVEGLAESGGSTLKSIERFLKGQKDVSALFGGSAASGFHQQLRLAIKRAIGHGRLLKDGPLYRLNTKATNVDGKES
Strand	E-score
ATGAGATC	-0.016
GCTCCCAA	-0.0465
ACGACACA	-0.0271
CCGGACGG	0.15
ACCTCAGC	-0.0627
TCGACCAA	-0.000835
GCCCGTGA	-0.0413
AACCGGTC	-0.0759
AGACTGAA	-0.0195
AGTACTCG	-0.0447
CTTAAGAC	-0.114
TAAGTGTA	-0.201
CCACGTAC	-0.279
CCCGGTCG	0.0778
GAGCAATA	0.0393
CCTGGTCA	-0.0667
CCTCTATA	-0.0242
GGCATACA	0.115
ATGTCAGA	-0.132
TCAAGACA	-0.0832

Some of these lines once more (sample 3):
Strand	log2 enrichment
UCAAGUCCUGUGCUACACAUCGUAUGUACCGAAUCGGAAAGGGAAAGGGGAAAGGAAAGUAUUAUGUUACGCCGUUCGGAUCUGCACUUC	-0.532
AGUCCUGUGCUACACAUCGUAUGUACCGAAUCGGGUUUUUGGGUUUUUGGGUUUUUGGAAAGUAUUAUGUUACGCCGUUCGGAUCUGCAC	-0.206
CCUGUGCUACACAUCGUAUGUACCGAAUCGGCCCCCCCGGCCCCCCCGGGCCCCCCCGGGGAAAGUAUUAUGUUACGCCGUUCGGAUCUG	-0.519
CCUGUGCUACACAUCGUAUGUACCGAAUCGGAAAAAAAGGGAAAAAAAGGGGAAAAAAAGGAAAGUAUUAUGUUACGCCGUUCGGAUCUG	-0.959
